Results collected from several papers.
Parts stem from different laboratories: compare values within a part only.
Chain of UniProt Q8NE63 (whole entry, looked up): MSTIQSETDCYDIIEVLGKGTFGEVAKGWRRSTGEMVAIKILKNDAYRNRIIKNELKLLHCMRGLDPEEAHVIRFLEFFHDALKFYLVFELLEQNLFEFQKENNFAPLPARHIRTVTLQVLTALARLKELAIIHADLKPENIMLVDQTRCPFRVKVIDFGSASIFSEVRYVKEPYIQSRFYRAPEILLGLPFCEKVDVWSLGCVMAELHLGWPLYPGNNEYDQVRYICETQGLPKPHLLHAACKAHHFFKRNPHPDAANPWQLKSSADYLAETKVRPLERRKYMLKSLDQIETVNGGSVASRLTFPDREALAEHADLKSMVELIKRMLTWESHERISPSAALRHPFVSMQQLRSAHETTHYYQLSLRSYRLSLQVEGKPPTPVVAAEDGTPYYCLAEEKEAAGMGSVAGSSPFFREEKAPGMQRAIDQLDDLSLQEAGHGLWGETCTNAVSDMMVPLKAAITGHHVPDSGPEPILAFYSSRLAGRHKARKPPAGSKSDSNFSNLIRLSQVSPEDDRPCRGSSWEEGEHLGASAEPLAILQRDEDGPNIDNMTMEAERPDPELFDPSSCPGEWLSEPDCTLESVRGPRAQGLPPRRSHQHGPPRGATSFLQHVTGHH
Chain of UniProt P07948 (whole entry, looked up): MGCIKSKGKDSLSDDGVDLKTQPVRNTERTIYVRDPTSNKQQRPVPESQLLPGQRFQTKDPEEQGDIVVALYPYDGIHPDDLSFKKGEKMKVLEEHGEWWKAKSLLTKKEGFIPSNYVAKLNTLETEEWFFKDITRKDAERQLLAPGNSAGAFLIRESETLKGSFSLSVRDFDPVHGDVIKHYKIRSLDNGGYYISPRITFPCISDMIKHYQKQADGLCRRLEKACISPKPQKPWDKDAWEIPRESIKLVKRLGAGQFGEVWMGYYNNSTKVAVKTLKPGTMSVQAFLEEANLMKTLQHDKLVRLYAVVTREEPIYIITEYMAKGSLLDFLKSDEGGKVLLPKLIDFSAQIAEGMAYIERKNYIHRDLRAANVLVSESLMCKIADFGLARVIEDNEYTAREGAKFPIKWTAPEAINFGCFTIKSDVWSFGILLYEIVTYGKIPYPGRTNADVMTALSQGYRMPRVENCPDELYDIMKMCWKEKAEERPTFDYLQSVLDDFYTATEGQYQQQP
Chain of UniProt P53350 (whole entry, looked up): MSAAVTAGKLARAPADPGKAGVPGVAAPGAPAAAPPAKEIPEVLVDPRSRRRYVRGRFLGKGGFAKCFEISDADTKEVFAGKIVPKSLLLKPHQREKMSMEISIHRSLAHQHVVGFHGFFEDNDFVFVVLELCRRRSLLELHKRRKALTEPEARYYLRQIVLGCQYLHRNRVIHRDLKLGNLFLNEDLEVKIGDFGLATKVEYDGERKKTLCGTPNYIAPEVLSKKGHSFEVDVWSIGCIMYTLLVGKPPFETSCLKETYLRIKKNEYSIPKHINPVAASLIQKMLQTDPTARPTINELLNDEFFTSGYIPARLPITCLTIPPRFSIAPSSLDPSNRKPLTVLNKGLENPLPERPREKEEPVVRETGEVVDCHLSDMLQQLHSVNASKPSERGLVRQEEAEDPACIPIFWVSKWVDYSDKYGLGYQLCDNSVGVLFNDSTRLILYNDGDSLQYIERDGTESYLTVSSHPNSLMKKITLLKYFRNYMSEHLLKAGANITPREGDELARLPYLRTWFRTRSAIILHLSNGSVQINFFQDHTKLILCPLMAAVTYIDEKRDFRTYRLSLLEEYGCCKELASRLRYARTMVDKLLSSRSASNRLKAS
Chain of UniProt Q14289 (whole entry, looked up): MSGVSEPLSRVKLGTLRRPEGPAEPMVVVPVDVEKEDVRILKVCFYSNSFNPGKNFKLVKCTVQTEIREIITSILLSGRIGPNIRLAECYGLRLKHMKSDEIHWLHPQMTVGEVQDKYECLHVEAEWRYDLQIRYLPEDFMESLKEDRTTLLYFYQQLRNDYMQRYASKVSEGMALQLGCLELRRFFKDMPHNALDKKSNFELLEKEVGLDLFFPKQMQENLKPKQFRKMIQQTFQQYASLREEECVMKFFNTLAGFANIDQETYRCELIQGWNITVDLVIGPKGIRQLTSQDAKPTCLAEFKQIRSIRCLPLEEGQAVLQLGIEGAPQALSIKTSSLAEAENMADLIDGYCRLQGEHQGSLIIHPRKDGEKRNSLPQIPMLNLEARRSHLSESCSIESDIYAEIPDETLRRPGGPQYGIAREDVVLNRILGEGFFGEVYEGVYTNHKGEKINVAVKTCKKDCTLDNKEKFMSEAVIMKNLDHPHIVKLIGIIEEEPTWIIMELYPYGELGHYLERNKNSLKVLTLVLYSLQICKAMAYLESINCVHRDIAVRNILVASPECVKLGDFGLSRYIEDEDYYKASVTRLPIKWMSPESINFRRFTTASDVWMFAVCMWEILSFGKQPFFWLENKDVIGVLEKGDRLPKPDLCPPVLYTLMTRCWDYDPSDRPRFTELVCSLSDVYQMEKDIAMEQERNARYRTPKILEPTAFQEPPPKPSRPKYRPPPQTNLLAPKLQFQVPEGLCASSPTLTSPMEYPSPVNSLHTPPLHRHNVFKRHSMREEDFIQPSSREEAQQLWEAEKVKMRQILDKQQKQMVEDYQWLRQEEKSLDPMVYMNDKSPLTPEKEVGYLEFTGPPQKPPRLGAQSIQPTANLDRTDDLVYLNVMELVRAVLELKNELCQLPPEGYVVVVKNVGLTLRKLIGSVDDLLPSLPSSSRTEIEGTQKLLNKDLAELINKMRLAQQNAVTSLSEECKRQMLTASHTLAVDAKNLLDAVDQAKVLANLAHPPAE
Chain of UniProt Q15303 (whole entry, looked up): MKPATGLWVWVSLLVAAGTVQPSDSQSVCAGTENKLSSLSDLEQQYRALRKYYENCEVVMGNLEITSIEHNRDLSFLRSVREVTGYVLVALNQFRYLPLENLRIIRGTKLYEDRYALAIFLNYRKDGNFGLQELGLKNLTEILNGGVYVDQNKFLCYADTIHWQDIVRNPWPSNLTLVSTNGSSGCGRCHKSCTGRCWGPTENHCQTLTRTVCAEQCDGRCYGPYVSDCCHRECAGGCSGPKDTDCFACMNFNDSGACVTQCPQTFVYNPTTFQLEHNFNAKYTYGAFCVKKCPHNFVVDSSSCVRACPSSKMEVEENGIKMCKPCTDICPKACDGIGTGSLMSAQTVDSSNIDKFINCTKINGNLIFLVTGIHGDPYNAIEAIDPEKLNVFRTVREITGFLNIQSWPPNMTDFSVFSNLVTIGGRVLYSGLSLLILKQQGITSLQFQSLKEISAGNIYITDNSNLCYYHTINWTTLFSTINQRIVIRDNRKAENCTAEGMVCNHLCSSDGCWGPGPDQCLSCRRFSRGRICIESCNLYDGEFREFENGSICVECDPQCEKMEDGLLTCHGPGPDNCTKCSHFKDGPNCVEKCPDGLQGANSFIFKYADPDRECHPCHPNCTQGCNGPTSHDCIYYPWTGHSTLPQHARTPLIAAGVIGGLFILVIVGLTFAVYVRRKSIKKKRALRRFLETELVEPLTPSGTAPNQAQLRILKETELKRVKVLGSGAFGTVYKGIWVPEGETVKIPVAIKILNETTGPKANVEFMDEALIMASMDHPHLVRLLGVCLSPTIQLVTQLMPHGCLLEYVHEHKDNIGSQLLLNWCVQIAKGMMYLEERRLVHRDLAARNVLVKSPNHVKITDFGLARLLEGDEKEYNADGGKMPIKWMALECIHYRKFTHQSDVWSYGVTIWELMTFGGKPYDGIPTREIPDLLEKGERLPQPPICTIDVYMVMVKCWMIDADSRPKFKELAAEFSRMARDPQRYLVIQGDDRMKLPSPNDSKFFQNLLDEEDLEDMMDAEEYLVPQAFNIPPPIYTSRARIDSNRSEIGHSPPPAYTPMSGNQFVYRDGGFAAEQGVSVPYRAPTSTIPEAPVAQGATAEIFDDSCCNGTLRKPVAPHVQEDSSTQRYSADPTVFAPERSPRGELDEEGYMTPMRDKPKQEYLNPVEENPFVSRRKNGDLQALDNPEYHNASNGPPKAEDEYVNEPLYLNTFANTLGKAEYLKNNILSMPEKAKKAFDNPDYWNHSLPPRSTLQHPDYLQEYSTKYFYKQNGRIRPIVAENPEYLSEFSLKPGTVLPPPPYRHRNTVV
Chain of UniProt O60285 (whole entry, looked up): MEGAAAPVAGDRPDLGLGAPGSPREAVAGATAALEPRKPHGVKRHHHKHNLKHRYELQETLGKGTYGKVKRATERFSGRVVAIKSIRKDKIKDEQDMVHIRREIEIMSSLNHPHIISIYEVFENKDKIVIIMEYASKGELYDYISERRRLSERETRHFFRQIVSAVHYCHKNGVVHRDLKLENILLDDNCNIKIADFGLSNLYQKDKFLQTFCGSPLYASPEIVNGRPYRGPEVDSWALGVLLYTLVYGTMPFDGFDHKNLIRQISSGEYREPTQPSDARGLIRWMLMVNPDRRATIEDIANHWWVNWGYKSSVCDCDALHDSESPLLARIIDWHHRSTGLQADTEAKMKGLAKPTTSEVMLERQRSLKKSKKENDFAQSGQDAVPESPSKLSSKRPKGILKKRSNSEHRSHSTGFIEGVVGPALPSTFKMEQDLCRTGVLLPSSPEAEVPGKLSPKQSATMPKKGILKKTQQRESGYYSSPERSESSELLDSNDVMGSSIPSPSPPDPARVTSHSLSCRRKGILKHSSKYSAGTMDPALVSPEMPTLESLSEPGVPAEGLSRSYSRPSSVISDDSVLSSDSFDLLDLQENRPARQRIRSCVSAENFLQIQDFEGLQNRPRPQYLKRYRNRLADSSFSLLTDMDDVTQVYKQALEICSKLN
Chain of UniProt Q96PF2 (whole entry, looked up): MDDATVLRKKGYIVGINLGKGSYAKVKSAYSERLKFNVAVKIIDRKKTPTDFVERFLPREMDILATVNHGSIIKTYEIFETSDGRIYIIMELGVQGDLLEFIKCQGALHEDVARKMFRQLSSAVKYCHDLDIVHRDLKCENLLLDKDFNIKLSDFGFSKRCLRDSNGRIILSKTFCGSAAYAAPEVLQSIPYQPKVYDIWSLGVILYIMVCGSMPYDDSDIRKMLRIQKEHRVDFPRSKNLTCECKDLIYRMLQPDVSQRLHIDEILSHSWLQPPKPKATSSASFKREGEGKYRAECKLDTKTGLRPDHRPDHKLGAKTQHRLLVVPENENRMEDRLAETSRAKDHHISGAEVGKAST

Study 1
Structure (SMILES): C[C@@H]1CN(c2cc(-c3n[nH]c4ccc(OC5(C)CC5)cc34)ncn2)C[C@H](C)O1
Observed: cell-free assay
Method: competition with immobilised ligand
Concentration: 0.1 µM
For Protein-tyrosine kinase 2-beta (PTK2B, Homo sapiens, UniProt Q14289): remaining binding read 100%.
The remaining binding was 100% (Phosphatidylinositol 4-kinase beta (PI4KB, Homo sapiens, UniProt Q9UBF8)).
The remaining binding was 64% (Tyrosine-protein kinase ABL1, phosphorylated (ABL1, Homo sapiens, UniProt P00519, Q252H)).
The remaining binding was 98% (Tyrosine-protein kinase Lyn (LYN, Homo sapiens, UniProt P07948)).
RAC-beta serine/threonine-protein kinase (AKT2, Homo sapiens, UniProt P31751) — remaining binding: 100%.
The remaining binding was 95% (Protein kinase C epsilon type (PRKCE, Homo sapiens, UniProt Q02156)).
The remaining binding was 68% (Serine/threonine-protein kinase PLK1 (PLK1, Homo sapiens, UniProt P53350)).
It gave 100% for remaining binding (Tyrosine-protein kinase receptor TYRO3 (TYRO3, Homo sapiens, UniProt Q06418)).
The remaining binding was 88% (Serine/threonine-protein kinase SBK1 (SBK1, Homo sapiens, UniProt Q52WX2)).
It gave 81% for remaining binding (Non-receptor tyrosine-protein kinase TYK2, JH1 (TYK2, Homo sapiens, UniProt P29597)).
Proto-oncogene tyrosine-protein kinase ROS (ROS1, Homo sapiens, UniProt P08922) — remaining binding: 100%.
For Interleukin-1 receptor-associated kinase 4 (IRAK4, Homo sapiens, UniProt Q9NWZ3): remaining binding read 90%.
Megakaryocyte-associated tyrosine-protein kinase (MATK, Homo sapiens, UniProt P42679) — remaining binding: 94%.
It gave 66% for remaining binding (Phosphatidylinositol 4-phosphate 3-kinase C2 domain-containing subunit beta (PIK3C2B, Homo sapiens, UniProt O00750)).
For Mitogen-activated protein kinase kinase kinase 20 (MAP3K20, Homo sapiens, UniProt Q9NYL2): remaining binding read 92%.
Tyrosine-protein kinase ABL1, phosphorylated (ABL1, Homo sapiens, UniProt P00519, F317L) — remaining binding: 82%.
Mitogen-activated protein kinase kinase kinase 9 (MAP3K9, Homo sapiens, UniProt P80192) — remaining binding: 100%.
For Serine/threonine-protein kinase 17A (STK17A, Homo sapiens, UniProt Q9UEE5): remaining binding read 100%.
It gave 80% for remaining binding (Cyclin-dependent kinase 9 (CDK9, Homo sapiens, UniProt P50750)).
The remaining binding was 92% (NUAK family SNF1-like kinase 1 (NUAK1, Homo sapiens, UniProt O60285)).
Myosin light chain kinase (MYLK3, Homo sapiens, UniProt Q32MK0) — remaining binding: 87%.
The remaining binding was 90% (Receptor tyrosine-protein kinase erbB-4 (ERBB4, Homo sapiens, UniProt Q15303)).

Study 2
Organism: Sarcocystis neurona
Observed: parasite activity
Concentration: concentration not given
`COc1nc(C)nc(Cl)c1NC1=NCCN1.Cl`: activity class “inactive”.
`CN1C(C(=O)Nc2ccccn2)=C(O)c2ccccc2S1(=O)=O.O`: activity class “inactive”.
`CC1(C)C[C@@H]1C(=O)N/C(=C\CCCCSC[C@H](N)C(=O)O)C(=O)[O-].[Na+]` — result for activity class: “inactive”.

Study 3
Cell line: mouse MPNST tumor cells
Method: high-content immunofluorescence imaging
Item: nuclear SOX9
Concentration: 10 µM
Time: 12 h
Notes: mean of 2 replicates
Relative to: DMSO control
Reading: higher = more nuclear SOX9
For `CCN(CC)CCNC(=O)c1cc(Br)c(N)cc1OC`, “nuclear SOX9 intensity” read 96.7 % of DMSO.
Under “nuclear SOX9 intensity”, `O=C(O)CCNc1cc(N2CCc3ccccc3CC2)nc(-c2ccccn2)n1` is recorded as 87.5 % of DMSO.
`COc1ccc(CCCn2ncc3c2nc(N)n2nc(-c4ccco4)nc32)cc1` — result for “nuclear SOX9 intensity”: 104 % of DMSO.
`COc1ccc2nc3ccc(Cl)cc3c(SCCCN)c2c1` — result for “nuclear SOX9 intensity”: 97.8 % of DMSO.
`O=C(c1cc(S(=O)(=O)Nc2ccccc2F)c(F)cc1Cl)N1CCN2CCC[C@@H]2C1` — result for “nuclear SOX9 intensity”: 88.6 % of DMSO.
`CC1(C)CCC(C)(C)c2cc(C(=O)Nc3ccc(C(=O)O)cc3)ccc21`: “nuclear SOX9 intensity” 118 % of DMSO.

Study 4
Compound: COc1ccc(-c2cnc3c(-c4ccsc4)cnn3c2)cc1
Observed: enzyme activity
Action: inhibitor
Concentration: 0.5 µM
Relative to: control
Serine/threonine-protein kinase WNK3 (WNK3, Homo sapiens, UniProt Q9BYP7) — remaining activity: 92.7%.
The remaining activity was 97.5% (MAP kinase-activated protein kinase 3 (MAPKAPK3, Homo sapiens, UniProt Q16644)).
It gave 66.9% for remaining activity (Serine/threonine-protein kinase 16 (STK16, Homo sapiens, UniProt O75716)).
The remaining activity was 108% (Homeodomain-interacting protein kinase 4 (HIPK4, Homo sapiens, UniProt Q8NE63)).
For Testis-specific serine/threonine-protein kinase 2 (TSSK2, Homo sapiens, UniProt Q96PF2): remaining activity read 99%.
It gave 96.7% for remaining activity (Tyrosine-protein kinase receptor UFO (AXL, Homo sapiens, UniProt P30530)).
It gave 87.5% for remaining activity (Ephrin type-B receptor 4 (EPHB4, Homo sapiens, UniProt P54760)).
It gave 90.7% for remaining activity (Ribosomal protein S6 kinase alpha-6 (RPS6KA6, Homo sapiens, UniProt Q9UK32)).

Study 5
SMILES: CC(=O)N[C@@H](Cc1c[nH]c2ccccc12)C(=O)N[C@@H](CCC(=O)C=[N+]=[N-])C(=O)OC(C)C
Matrix: EL4 tumour
Dose: dose not given
It gave 2.27 for fold change (item: carotene diol; Mus musculus; relative to: over vehicle).
For item: hypotaurine; mouse, EL4 tumour-bearing; relative to: vehicle: fold change read 0.214.
For item: phosphopantetheine; mouse, EL4 tumour-bearing; relative to: vehicle: fold change read 0.27.
item: pyrraline; mouse, EL4 tumour-bearing; relative to: vehicle — fold change: 0.497.

Other studies, line by line
For `CC(C)n1cnc(-c2ccc(F)cc2)c1-c1ncc(C(=O)Nc2ccc(N3CCN(C)CC3)cc2)[nH]1`, “acute exacerbation incidence” read 0% (idiopathic pulmonary fibrosis patients; oral, 30 mg twice daily, week 0 to 12, trial).
